Published values collected from several papers.
Protocols differ between the studies behind these lines.
ALK: ALK tyrosine kinase receptor (ALK, Homo sapiens, UniProt Q9UM73)
ALK L1196M: ALK tyrosine kinase receptor (ALK, Homo sapiens, UniProt Q9UM73, L1196M)
ALK C1156Y: ALK tyrosine kinase receptor (ALK, Homo sapiens, UniProt Q9UM73, C1156Y)

Compound	target	observed	technique	concentration	reference	remaining binding [%]
C=CC(=O)N1CCc2ccc(-n3c(=O)ccc4cnc5ccc(-c6cnn(C)c6)cc5c43)cc21	ALK		KINOMEscan	1 µM	DMSO control	100
CC(=O)N1c2ccc(-c3ccc(CNC(=O)c4cn5cc(-c6cnc(N)nc6)nc(N6CCOCC6)c5n4)cc3)cc2CC[C@@H]1C	ALK		KINOMEscan	10 µM		70
COc1c(Cl)cccc1Nc1c(-c2ccncc2C#C[C@@]2(C)CCCN2C(=O)/C=C/CN(C)C)[nH]c2c1C(=O)NCC2	ALK L1196M	cell-free assay	competition with immobilised ligand	3 µM		83
Nc1ncc2c(n1)-c1c([nH]c3ccc(C4=CCOCC4)cc13)CCC2	ALK	binding	competition with immobilised ligand	1 µM		97
Cc1cnc2nc1Nc1cccc(c1)COC/C=C/COCc1cc(ccc1OCCN1CCOCC1)N2	ALK C1156Y	binding		0.1 µM		95
CNC1C[S+]2CC[S+]3CC[S+](C1)[Ru-4]321([N]=C=S)[n]2c3ccc(OC)cc3c3c4c(c5cc(F)c[n+]1c5c32)C(=O)NC4=O (stereo not drawn)	ALK L1196M		KinomeScan	0.1 µM	untreated	86
CCN1CCN(Cc2ccc(C(=O)Nc3ccc(C)c(NCc4cnc5[nH]ccc5c4OC)c3)cc2C(F)(F)F)CC1	ALK	binding	competition with immobilised ligand	1 µM		44
CC(C)=CC1OC(C)(C)C2C=C3C(=O)C(Cl)=CC(O)C3C3C(O)C4OC4C(=O)C132 (stereo not drawn)	ALK C1156Y	cell-free assay	competition with immobilised ligand	10 µM		73
COc1ccc(NC(=O)Nc2ccc3c(c2)C(=O)N(C(C)CO)CC(C)C(CN(C)Cc2ccc4c(c2)OCO4)O3)cc1 (stereo not drawn)	ALK	binding	competition with immobilised ligand	10 µM		100
CNC(=O)C1CCN(c2cc(C)c(F)cc2NC(=O)c2ccc(-c3cc(O)ccc3C)c(C)c2)CC1	ALK L1196M	binding	competition with immobilised ligand	1 µM		100
CN1CCN(Cc2ccc(NC(=O)c3cccc(C#Cc4cnc(N)c5ncccc45)c3)cc2C(F)(F)F)CC1	ALK	cell-free assay	competition with immobilised ligand	50 nM		81
C=CC(=O)N1CCCC(n2c(=O)c3ncccc3n(Cc3ccc(Oc4ccccc4)cc3)c2=O)C1 (stereo not drawn)	ALK C1156Y	cell-free assay	competition with immobilised ligand	1 µM		89
